{"data": "Measured values pooled from the literature", "PPM1D": "Protein phosphatase 1D (PPM1D, Homo sapiens, UniProt O15297)", "PPARG": "Peroxisome proliferator-activated receptor gamma (PPARG, Homo sapiens, UniProt P37231)", "TMEM97": "Sigma intracellular receptor 2 (TMEM97, Homo sapiens, UniProt Q5BJF2)", "note": "Several values in a cell are separate wells, animals, samples, runs or records. ± marks the error that the study gave.", "UniProt Q9UM07, sequence (whole entry, looked up)": "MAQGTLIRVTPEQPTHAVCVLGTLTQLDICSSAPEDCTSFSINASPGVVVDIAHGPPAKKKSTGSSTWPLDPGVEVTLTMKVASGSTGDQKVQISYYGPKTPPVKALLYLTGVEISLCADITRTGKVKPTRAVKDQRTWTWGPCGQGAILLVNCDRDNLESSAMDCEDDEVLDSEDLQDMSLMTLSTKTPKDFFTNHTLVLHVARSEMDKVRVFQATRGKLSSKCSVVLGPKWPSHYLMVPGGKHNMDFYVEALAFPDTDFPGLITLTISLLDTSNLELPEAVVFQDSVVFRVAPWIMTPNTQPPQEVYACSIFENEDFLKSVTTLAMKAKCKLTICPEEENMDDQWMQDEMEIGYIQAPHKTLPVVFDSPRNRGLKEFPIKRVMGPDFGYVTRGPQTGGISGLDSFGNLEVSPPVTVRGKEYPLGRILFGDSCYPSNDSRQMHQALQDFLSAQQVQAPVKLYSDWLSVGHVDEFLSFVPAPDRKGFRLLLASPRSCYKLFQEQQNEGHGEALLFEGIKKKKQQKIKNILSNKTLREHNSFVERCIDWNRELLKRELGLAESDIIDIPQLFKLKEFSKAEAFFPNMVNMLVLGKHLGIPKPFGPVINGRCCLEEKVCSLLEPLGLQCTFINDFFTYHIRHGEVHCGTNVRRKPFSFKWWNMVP", "UniProt P37231, sequence (whole entry, looked up)": "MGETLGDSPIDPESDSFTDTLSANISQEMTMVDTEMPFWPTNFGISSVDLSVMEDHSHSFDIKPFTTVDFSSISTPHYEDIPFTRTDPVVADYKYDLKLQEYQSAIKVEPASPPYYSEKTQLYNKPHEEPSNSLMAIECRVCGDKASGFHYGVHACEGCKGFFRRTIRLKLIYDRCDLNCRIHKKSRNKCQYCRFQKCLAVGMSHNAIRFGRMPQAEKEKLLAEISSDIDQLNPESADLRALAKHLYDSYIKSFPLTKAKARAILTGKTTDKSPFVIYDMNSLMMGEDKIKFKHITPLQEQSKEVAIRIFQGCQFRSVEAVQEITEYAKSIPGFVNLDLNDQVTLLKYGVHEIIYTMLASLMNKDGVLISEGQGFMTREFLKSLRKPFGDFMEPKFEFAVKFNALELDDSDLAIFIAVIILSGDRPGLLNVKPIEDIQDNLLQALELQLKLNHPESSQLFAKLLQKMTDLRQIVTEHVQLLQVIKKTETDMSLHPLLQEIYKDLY", "UniProt O15297, sequence (whole entry, looked up)": "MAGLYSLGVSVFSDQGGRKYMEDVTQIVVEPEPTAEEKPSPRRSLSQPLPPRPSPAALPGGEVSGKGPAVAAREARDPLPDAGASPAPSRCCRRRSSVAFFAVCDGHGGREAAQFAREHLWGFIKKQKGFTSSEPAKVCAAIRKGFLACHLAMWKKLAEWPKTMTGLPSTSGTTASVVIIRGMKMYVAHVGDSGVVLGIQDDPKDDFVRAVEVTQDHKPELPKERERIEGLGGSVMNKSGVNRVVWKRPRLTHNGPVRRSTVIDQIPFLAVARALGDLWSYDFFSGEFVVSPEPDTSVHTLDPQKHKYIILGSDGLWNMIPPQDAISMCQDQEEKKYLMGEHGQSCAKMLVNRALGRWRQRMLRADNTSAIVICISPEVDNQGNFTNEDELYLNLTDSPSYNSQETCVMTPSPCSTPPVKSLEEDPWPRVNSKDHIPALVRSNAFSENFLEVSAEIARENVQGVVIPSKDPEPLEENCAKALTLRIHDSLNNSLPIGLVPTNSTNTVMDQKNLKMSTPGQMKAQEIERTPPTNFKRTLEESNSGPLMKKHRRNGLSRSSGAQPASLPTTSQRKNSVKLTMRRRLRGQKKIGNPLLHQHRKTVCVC", "UniProt Q5BJF2, sequence (whole entry, looked up)": "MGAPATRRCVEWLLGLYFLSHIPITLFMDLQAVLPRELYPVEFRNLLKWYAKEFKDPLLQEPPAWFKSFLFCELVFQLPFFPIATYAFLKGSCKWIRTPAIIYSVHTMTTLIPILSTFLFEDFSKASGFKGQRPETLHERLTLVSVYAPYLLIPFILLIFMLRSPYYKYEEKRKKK", "UniProt P49840, sequence (whole entry, looked up)": "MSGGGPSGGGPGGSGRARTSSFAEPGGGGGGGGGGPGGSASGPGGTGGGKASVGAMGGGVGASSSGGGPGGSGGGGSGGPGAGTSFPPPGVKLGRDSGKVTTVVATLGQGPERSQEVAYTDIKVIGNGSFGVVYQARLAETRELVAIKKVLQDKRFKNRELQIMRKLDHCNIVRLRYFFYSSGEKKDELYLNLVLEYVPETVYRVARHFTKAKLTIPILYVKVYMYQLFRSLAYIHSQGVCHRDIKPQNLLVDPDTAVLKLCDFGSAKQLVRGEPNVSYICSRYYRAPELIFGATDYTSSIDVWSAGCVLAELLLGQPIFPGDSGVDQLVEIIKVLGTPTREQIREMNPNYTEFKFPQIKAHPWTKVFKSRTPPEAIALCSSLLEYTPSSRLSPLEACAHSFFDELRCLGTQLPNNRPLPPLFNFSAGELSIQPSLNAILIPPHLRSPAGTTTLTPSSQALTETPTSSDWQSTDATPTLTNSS", "UniProt Q9SZU7, sequence (whole entry, looked up)": "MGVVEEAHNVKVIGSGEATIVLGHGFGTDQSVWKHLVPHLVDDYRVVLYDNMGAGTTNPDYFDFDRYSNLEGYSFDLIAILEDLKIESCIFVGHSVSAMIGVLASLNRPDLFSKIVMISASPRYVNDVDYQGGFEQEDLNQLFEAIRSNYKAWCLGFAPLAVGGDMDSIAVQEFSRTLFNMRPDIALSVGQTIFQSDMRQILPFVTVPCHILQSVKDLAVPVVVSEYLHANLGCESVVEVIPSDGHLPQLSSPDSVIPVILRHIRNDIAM", "UniProt Q9Y2K6, sequence (whole entry, looked up)": "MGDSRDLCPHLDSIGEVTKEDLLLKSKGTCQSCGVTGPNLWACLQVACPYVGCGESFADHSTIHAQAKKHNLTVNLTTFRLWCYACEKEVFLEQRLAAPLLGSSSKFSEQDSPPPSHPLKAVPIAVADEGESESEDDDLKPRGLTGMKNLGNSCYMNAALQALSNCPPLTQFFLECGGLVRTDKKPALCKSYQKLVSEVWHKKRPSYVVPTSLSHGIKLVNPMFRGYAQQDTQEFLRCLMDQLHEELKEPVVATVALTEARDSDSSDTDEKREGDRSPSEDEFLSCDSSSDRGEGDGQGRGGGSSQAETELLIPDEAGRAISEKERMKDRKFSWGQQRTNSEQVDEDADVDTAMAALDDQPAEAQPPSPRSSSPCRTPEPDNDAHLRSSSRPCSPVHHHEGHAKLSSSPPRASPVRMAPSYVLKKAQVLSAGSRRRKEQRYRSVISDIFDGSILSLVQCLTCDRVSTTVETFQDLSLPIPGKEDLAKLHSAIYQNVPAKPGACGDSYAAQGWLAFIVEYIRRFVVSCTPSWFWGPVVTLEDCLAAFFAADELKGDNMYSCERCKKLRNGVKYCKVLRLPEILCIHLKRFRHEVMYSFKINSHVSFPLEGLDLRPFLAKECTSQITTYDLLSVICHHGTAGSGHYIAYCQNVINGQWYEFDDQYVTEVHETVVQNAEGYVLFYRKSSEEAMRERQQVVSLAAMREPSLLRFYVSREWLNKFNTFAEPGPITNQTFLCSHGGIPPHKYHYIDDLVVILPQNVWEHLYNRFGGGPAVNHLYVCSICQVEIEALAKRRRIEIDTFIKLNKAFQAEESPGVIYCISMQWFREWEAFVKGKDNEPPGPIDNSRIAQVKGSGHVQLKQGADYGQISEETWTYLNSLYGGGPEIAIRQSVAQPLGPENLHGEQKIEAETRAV", "UniProt A0A109QYD3, sequence (whole entry, unmodified, looked up)": "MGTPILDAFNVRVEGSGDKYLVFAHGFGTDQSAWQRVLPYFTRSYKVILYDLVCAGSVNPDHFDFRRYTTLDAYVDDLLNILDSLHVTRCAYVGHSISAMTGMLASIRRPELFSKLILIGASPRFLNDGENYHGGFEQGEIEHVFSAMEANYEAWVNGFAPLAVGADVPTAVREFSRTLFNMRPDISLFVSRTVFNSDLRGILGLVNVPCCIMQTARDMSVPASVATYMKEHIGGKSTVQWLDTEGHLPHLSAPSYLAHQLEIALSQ", "UniProt Q9HB29, sequence (whole entry, looked up)": "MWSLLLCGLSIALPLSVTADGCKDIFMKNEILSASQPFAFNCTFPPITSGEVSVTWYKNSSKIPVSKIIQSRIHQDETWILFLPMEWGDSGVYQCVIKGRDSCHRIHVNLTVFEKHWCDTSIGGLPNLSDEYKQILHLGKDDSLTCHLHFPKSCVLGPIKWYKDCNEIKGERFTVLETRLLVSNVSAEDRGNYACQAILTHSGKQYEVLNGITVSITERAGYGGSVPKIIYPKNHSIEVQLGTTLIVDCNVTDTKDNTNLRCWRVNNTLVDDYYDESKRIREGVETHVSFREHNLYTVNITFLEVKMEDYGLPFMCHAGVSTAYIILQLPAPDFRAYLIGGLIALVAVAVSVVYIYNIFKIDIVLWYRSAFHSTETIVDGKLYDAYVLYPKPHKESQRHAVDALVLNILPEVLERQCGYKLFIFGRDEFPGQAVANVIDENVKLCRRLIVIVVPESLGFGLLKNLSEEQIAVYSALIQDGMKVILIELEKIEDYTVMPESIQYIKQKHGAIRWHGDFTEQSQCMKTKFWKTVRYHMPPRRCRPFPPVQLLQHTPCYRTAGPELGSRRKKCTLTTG", "UniProt P20782, sequence (whole entry, unmodified, looked up)": "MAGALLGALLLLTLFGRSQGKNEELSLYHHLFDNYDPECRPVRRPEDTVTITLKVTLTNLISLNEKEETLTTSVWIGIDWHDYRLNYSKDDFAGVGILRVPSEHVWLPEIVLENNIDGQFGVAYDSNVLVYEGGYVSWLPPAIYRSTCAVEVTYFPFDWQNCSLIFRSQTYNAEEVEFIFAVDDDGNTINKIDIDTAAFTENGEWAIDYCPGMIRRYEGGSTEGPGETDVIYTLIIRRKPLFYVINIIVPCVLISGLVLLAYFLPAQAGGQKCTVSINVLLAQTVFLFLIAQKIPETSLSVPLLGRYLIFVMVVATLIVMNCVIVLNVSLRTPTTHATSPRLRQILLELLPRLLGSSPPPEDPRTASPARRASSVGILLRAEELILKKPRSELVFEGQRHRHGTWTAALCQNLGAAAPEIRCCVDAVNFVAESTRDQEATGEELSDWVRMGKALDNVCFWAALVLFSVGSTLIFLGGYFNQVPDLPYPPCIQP"}
{"SMILES": "CC1=C(C)[C@@H](Oc2c(F)cc3c(C)cc(=O)oc3c2F)OC1=O", "tested on": "RMS3 (Lathyrus oleraceus, UniProt A0A109QYD3, S96C)", "assay": "binding, fluorescence", "measurement": "Kd", "result": "516000 nM"}
{"SMILES": "CC(C)C[C@@H]1NC(=O)[C@@H](NC(=O)[C@H](C)N)CSCCC(=O)N2CN3CN(C2)C(=O)CCSC[C@H](NC(=O)[C@@H]2CCCN2C(=O)[C@H](CO)NC(=O)[C@H](Cc2ccc(O)cc2)NC1=O)C(=O)N[C@@H](Cc1c[nH]c2ccccc12)C(=O)N[C@@H](Cc1c[nH]cn1)C(=O)N1CCC[C@H]1C(=O)N[C@@H](CC(C)C)C(=O)N[C@@H](CC(N)=O)C(=O)N[C@@H](CC(=O)O)C(=O)N[C@H](C(=O)N[C@@H](C)C(=O)N(C)CC(=O)N(C)CC(=O)N(C)CC(=O)N(C)CC(=O)N(C)CC(=O)N(C)CC(=O)N[C@@H](CCCCNC(=O)CCCC[C@@H]1SC[C@@H]2NC(=O)N[C@@H]21)C(N)=O)CSCCC3=O", "tested on": "Tumor necrosis factor receptor superfamily member 4, extracellular domain (TNFRSF4, Homo sapiens, UniProt P43489)", "assay": "binding, surface plasmon resonance", "measurement": "Kd", "result": "637 nM"}
{"SMILES": "Cc1cccc2c1N(C(=O)n1ccnn1)CC2", "tested on": "KAI2 (Arabidopsis thaliana, UniProt Q9SZU7)", "assay": "ITC", "conditions": "mean of replicates", "measurement": "Kd", "result": "27700 nM"}
{"SMILES": "NCCNC(=O)[C@H](CC1CCCCC1)NC(=O)c1ccc(CNc2ccccn2)s1", "tested on": "PPM1D", "assay": "binding", "measurement": "Kd", "result": "280 nM"}
{"SMILES": "COC1CN([C@H]2CC[C@H]([C@@]3(C)Oc4c(Cl)cc(C(=O)NCc5c(SC)cc(C)[nH]c5=O)c(C)c4O3)CC2)C1", "assay": "RNA-seq, measured: BMI1", "test system": "human, whole blood", "conditions": "dose not given, 24 h", "how to read": "baseline: pretreatment baseline", "measurement": "log2 fold change", "result": 2.31}
{"SMILES": "O=C(Nc1ccc(C(F)F)cc1)[C@H](CC1CCCCC1)Nc1nn2c(=O)ccnc2s1", "tested on": "PPM1D", "assay": "binding", "measurement": "Kd", "result": "7.7 nM"}
{"SMILES": "Cn1ncc2cc(-c3cncc(Cl)c3N3CCC4(CCNC4=O)CC3)ccc21", "tested on": "GSK3A (Homo sapiens, UniProt P49840)", "assay": "cell-free assay", "conditions": "lysate", "measurement": "Kd", "result": "1780 nM"}
{"SMILES": "Cc1c(Cc2ccc(Cl)c(OC(C)C(=O)O)c2)c2ccc(C(=O)NC(C)c3ccc(C(C)(C)C)cc3)cc2n1CC1CC1 (centres unmarked)", "tested on": "PPARG", "assay": "ligand displacement, TR-FRET", "measurement": "Kd", "result": "0.636 nM"}
{"SMILES": "C=CC(=O)N1CCCN(C(=O)c2cc(Sc3cnc(NC(=O)C4CC4)s3)c(C)cc2OC)C[C@H]1C", "tested on": "ERBB4 (Homo sapiens, UniProt Q15303)", "assay": "binding, competition with immobilised ligand", "measurement": "Kd", "result": "> 10000 nM"}
{"SMILES": "Cc1c(Cc2cccc(OC(C)(C)C(=O)O)c2)c2ccc(C(=O)N[C@@H](C)c3cccc(C(C)(C)C)c3)cc2n1CC(C)C", "tested on": "PPARG", "assay": "ligand displacement, TR-FRET", "measurement": "Kd", "result": "0.742 nM"}
{"SMILES": "CC(C)CC(NC(=O)c1ccc(Cl)cc1)C(=O)Nc1ccc(S(N)(=O)=O)cc1 (centres unmarked)", "tested on": "PPM1D", "assay": "binding", "measurement": "Kd", "result": "6800 nM"}
{"SMILES": "C=CC(=O)N1C[C@H](C)N(c2nc(OC[C@@]34CCCN3C[C@H](F)C4)nc3c(F)c(-c4ccc(F)c5sc(N)c(C#N)c45)c(C(F)(F)F)cc23)C[C@H]1C", "tested on": "GTPase KRas, GppNHp-bound (KRAS, Homo sapiens, UniProt P01116, A146T)", "measurement": "Kd", "result": "3320 nM and 3340 nM"}
{"SMILES": "N=C(N)NCCC[C@H](NC(=O)[C@H](Cc1ccc(O)cc1)NC(=O)CN)C(=O)N[C@@H](CCCNC(=N)N)C(=O)N[C@@H](CCCCN)C(=O)N[C@@H](Cc1ccccc1)C(=O)N[C@@H](Cc1c[nH]cn1)C(=O)N[C@@H](CCC(=O)O)C(=O)N[C@@H](CCCCN)C(=O)N[C@@H](Cc1c[nH]cn1)C(=O)N[C@@H](Cc1c[nH]cn1)C(=O)O", "tested on": "TMEM97", "assay": "SPR", "conditions": "pH 7.4, 25 °C", "measurement": "Kd", "result": "9320 ± 2170 nM"}
{"SMILES": "Cc1c(Cc2cc(F)cc(OC(C)(C)C(=O)O)c2)c2ccc(C(=O)N[C@@H](C)c3cc(F)cc(C(C)(C)C)c3)cc2n1CC1CCC1", "tested on": "PPARG", "assay": "ligand displacement, TR-FRET", "measurement": "Kd", "result": "1.09 nM"}
{"SMILES": "N#Cc1cnc2sc(C(=O)O)cc2c1N1CCc2[nH]nc(C(=O)N[C@@H](CC(=O)NCCOCCN3CCOCC3)c3cccc(Br)c3)c2C1", "tested on": "Interleukin-1 receptor-like 2, D1-D2 domains (IL1RL2, Homo sapiens, UniProt Q9HB29)", "assay": "binding, surface plasmon resonance", "conditions": "IL-36R D1-D2 domains", "measurement": "Kd", "result": "72 nM"}
{"SMILES": "CC(C)Cn1cc(Cc2cccc(OC(C)(C)C(=O)O)c2)c2cc(F)c(C(=O)N[C@@H](C)c3cccc(C(C)(C)C)c3)cc21", "tested on": "PPARG", "assay": "ligand displacement, TR-FRET", "measurement": "Kd", "result": "4.2 nM"}
{"SMILES": "N=C(N)NCCC[C@H](NC(=O)[C@H](Cc1ccc(O)cc1)NC(=O)CN)C(=O)N[C@@H](CCCNC(=N)N)C(=O)N[C@@H](CCCCN)C(=O)N[C@@H](Cc1ccccc1)C(=O)N[C@@H](Cc1c[nH]cn1)C(=O)N[C@@H](CCC(=O)O)C(=O)N[C@@H](CCCCN)C(=O)N[C@@H](Cc1c[nH]cn1)C(=O)N[C@@H](Cc1c[nH]cn1)C(=O)N[C@@H](CO)C(=O)N[C@@H](Cc1c[nH]cn1)C(=O)N[C@@H](CCCNC(=N)N)C(=O)N[C@@H](CCC(=O)O)C(=O)N[C@@H](Cc1ccccc1)C(=O)N1CCC[C@H]1C(=O)N[C@@H](Cc1ccccc1)C(=O)O", "tested on": "TMEM97", "assay": "SPR", "conditions": "pH 7.4, 25 °C", "measurement": "Kd", "result": "4610 ± 340 nM"}
{"SMILES": "Cc1c[nH]c2nccc(-c3ccc(C(=O)N[C@@H]4c5c(F)cc(C(F)F)cc5C[C@@H]4O)cn3)c12", "tested on": "PRKG1 (Homo sapiens, UniProt Q13976)", "assay": "binding, competition with immobilised ligand", "measurement": "Kd", "result": "195 nM"}
{"SMILES": "N=C(N)NCCC[C@H](N)C(=O)N[C@@H](CCCCN)C(=O)N[C@@H](Cc1ccccc1)C(=O)N[C@@H](Cc1c[nH]cn1)C(=O)N[C@@H](CCC(=O)O)C(=O)N[C@@H](CCCCN)C(=O)N[C@@H](Cc1c[nH]cn1)C(=O)N[C@@H](Cc1c[nH]cn1)C(=O)O", "tested on": "TMEM97", "assay": "SPR", "conditions": "pH 7.4, 25 °C", "measurement": "Kd", "result": "22100 ± 5100 nM"}
{"SMILES": "Cc1c(Cc2cccc(OC(C)(C)C(=O)O)c2)c2ccc(C(=O)NCc3cccc(C(C)(C)C)c3)cc2n1CC1CCC1", "tested on": "PPARG", "assay": "ligand displacement, TR-FRET", "measurement": "Kd", "result": "0.075 nM"}
{"SMILES": "CCC(C)n1c(C(=O)Nc2cnc(C(=O)NC)n(CC(C)C)c2=O)ncc(NC(=O)c2ncc(NC(=O)c3ccccc3)c(=O)n2Cc2ccc(OC)cc2)c1=O (centres unmarked)", "tested on": "Heat shock protein HSP 90-alpha, C-terminal domain (HSP90AA1, Homo sapiens, UniProt P07900)", "assay": "binding, microscale thermophoresis, measured: C-terminal domain", "conditions": "together with: labelled CTD 50 nM", "measurement": "Kd", "result": "3400 ± 1000 nM"}
{"SMILES": "Cc1c(Cc2cc(F)cc(OC(C)(C)C(=O)O)c2)c2ccc(C(=O)N[C@@H](C)c3ccc(C(C)(C)C)cc3)cc2n1CC1CCC1", "tested on": "PPARG", "assay": "ligand displacement, TR-FRET", "measurement": "Kd", "result": "1.47 nM"}
{"SMILES": "C[N+]1(C)CCCC1", "tested on": "Chrnd/Chrna1/Chrne (Mus musculus, UniProt P02716+P04756+P20782, G173A/S470W)", "assay": "single-channel kinetics", "conditions": "A chain side site", "measurement": "Kd", "result": "194000 nM"}
{"SMILES": "C[C@H](NC(=O)[C@H](C)NC(=O)[C@H](C)NC(=O)[C@H](Cc1ccccc1)NC(=O)[C@H](CCCCN)NC(=O)[C@H](CCCNC(=N)N)NC(=O)[C@H](CCCNC(=N)N)NC(=O)[C@H](Cc1ccc(O)cc1)NC(=O)CN)C(=O)N[C@@H](C)C(=O)N[C@@H](C)C(=O)N[C@@H](CO)C(=O)N[C@@H](Cc1c[nH]cn1)C(=O)N[C@@H](CCCNC(=N)N)C(=O)N[C@@H](CCC(=O)O)C(=O)N[C@@H](Cc1ccccc1)C(=O)N1CCC[C@H]1C(=O)N[C@@H](Cc1ccccc1)C(=O)O", "tested on": "TMEM97", "assay": "SPR", "conditions": "pH 7.4, 25 °C", "measurement": "Kd", "result": "> 50000 nM"}
{"SMILES": "O=C(O)CCC(=O)c1cccc(NS(=O)(=O)c2c[nH]c3ncccc23)c1", "tested on": "Ubiquitin carboxyl-terminal hydrolase 20, ZnF-UBD domain (USP20, Homo sapiens, UniProt Q9Y2K6)", "measurement": "Kd", "result": "706000 nM"}
{"SMILES": "Cc1c(Cc2ccc(Cl)c(O[C@@H](C)C(=O)O)c2)c2ccc(C(=O)N[C@@H](C)c3ccc(C(C)(C)C)cc3)cc2n1CC1CCC1", "tested on": "PPARG", "assay": "ligand displacement, TR-FRET", "measurement": "Kd", "result": "0.92 nM"}
{"SMILES": "N=C(N)NCCC[C@H](NC(=O)[C@H](Cc1ccc(O)cc1)NC(=O)CNC(=O)[C@H](Cc1c[nH]cn1)NC(=O)[C@H](Cc1c[nH]cn1)NC(=O)[C@H](CCCNC(=N)N)NC(=O)[C@H](CCCCN)NC(=O)[C@H](CCC(=O)O)NC(=O)[C@@H](N)Cc1c[nH]cn1)C(=O)N[C@@H](CCCNC(=N)N)C(=O)N[C@@H](CCCCN)C(=O)N[C@@H](Cc1ccccc1)C(=O)N[C@@H](Cc1c[nH]cn1)C(=O)N[C@@H](CCC(=O)O)C(=O)N[C@@H](CCCCN)C(=O)N[C@@H](Cc1c[nH]cn1)C(=O)N[C@@H](Cc1c[nH]cn1)C(=O)N[C@@H](CO)C(=O)N[C@@H](Cc1c[nH]cn1)C(=O)N[C@@H](CCCNC(=N)N)C(=O)N[C@@H](CCC(=O)O)C(=O)N[C@@H](Cc1ccccc1)C(=O)N1CCC[C@H]1C(=O)N[C@@H](Cc1ccccc1)C(=O)O", "tested on": "TMEM97", "assay": "SPR", "conditions": "pH 7.4, 25 °C", "measurement": "Kd", "result": "1790 ± 2280 nM"}
{"SMILES": "Cc1c(Cc2cccc(OC(C)(C)C(=O)O)c2)c2ccc(C(=O)N[C@@H](C)c3cc(C(C)(C)C)ccc3F)cc2n1CC(C)C", "tested on": "PPARG", "assay": "ligand displacement, TR-FRET", "measurement": "Kd", "result": "0.697 nM"}
{"SMILES": "Cc1c(C)n(-c2ccc(Br)cc2)c2ncnc(N3CCC(C(N)C(=O)N4CCCC4)CC3)c12 (centres unmarked)", "tested on": "PADI4 (Homo sapiens, UniProt Q9UM07)", "assay": "surface plasmon resonance", "measurement": "Kd", "result": "3810 nM and 3560 nM and 1930 nM and 2400 nM"}
